Results pooled from the literature.
Lines come from different studies, so protocols differ. ± gives the spread as reported.

SMILES | assay | system | conditions | scale | endpoint | result
CC(C)C[C@H](NC(=O)CNC(=O)[C@H](CCCCN)NC(=O)[C@@H](N)CC(C)C)C(=O)N[C@@H](C)C(=O)N[C@@H](C)C(=O)N[C@@H](CCCCN)C(=O)N[C@@H](CC(C)C)C(=O)N[C@@H](CC(C)C)C(=O)NCC(=O)N[C@@H](CC(C)C)C(=O)N[C@@H](CCCCN)C(=O)N[C@@H](CCCCN)C(=O)O |  | rabbit erythrocytes | 128 µM, 4 h, 37 °C |  | haemolysis | 6.57%
CC[C@H](C)[C@@H]1NC(=O)[C@H](CCCCN)NC(=O)[C@H](CCCCN)NC(=O)[C@H](Cc2ccc(O)cc2)NC(=O)[C@H](CC(C)C)NC(=O)[C@@H]2CCCN2C(=O)[C@H](C)NC(=O)CNC(=O)CNC(=O)[C@H](CO)NC(=O)CNC(=O)CNC(=O)[C@H](CO)NC(=O)[C@H](CCC(=O)O)NC(=O)[C@H](CC(C)C)NC(=O)[C@H](CC(C)C)NC(=O)[C@H](CCCNC(=N)N)NC(=O)[C@H](CCCCN)NC(=O)[C@H]([C@@H](C)CC)NC(=O)[C@H]([C@@H](C)CC)NC(=O)[C@H](CCCCN)NC(=O)[C@H](CCCCN)NC(=O)[C@H](Cc2ccc(O)cc2)NC(=O)[C@H](CC(C)C)NC(=O)[C@@H]2CCCN2C(=O)CNC(=O)CNC(=O)[C@@H](NC(=O)CN)CSSC[C@@H](C(N)=O)NC(=O)[C@H](CC(C)C)NC(=O)[C@H](CCCNC(=N)N)NC(=O)[C@H](CCCCN)NC(=O)[C@H]([C@@H](C)CC)NC1=O | hemolysis | uninfected human erythrocytes | 1 h |  | HC10 | 50.1 ± 3.9 µM
CC(=CCC(O)C(C)=Cc1csc(C)n1)CC=CC(C)C(O)C(C)C(=O)C(C)(C)C(O)CC(=O)O (stereo not drawn) |  | human, plasma | intravenous infusion, 11.3 mg/m2 KOS-1584, 3 h infusion, cycle 1 | relative to: metabolite over KOS-1584 | AUC ratio | 11.2 ± 8.71%
CC[C@H](C)[C@H](NC(=O)[C@H](CCC(=O)O)NC(=O)[C@H](CCC(=O)O)NC(=O)[C@H](Cc1ccccc1)NC(=O)[C@H](CC(=O)O)NC(=O)CNC(=O)[C@H](CC(N)=O)NC(=O)CNC(=O)CNC(=O)CNC(=O)CNC(=O)[C@@H]1CCCN1C(=O)[C@H](CCCNC(=N)N)NC(=O)[C@@H]1CCCN1C(=O)[C@H](N)Cc1ccccc1)C(=O)N1CCC[C@H]1C(=O)N[C@@H](CCC(=O)O)C(=O)N[C@@H](CCC(=O)O)C(=O)N[C@@H](Cc1ccc(O)cc1)C(=O)N[C@@H](CC(C)C)C(=O)O | LC-MS/MS | human plasma QC samples | time not given, range over storage conditions |  | recovery | 93.7 to 101%
CC(C)[C@H](NC(=O)CNC(=O)[C@H](CCC(N)=O)NC(=O)[C@H](C)N)C(=O)O |  | human | intravenous infusion, 45 mg/kg/h, 2 h, relatedness Probably | relative to: subjects | drug-related adverse events | 0%
COC(=O)C[C@](O)(CCCC(C)(C)OC(C)=O)C(=O)O[C@@H]1C(OC)=C[C@]23CCCN2CCc2cc4c(cc2[C@H]13)OCO4 |  | CD1 mouse, stomach | subcutaneous, 1 mg/kg, 8 h |  | tissue concentration | 8.95 ng/mL
CCCCCCCCCCCCCCCC(=O)N[C@@H](Cc1c[nH]cn1)C(=O)N[C@@H](Cc1ccccc1)C(=O)N[C@@H](CCCNC(=N)N)C(=O)N[C@@H](Cc1c[nH]c2ccccc12)C(=O)NCC(=O)N[C@@H](CCCCN)C(=O)N1CCC[C@H]1C(=O)N[C@H](C(N)=O)C(C)C |  | mouse erythrocytes | up to 62.5 µM, 1 h | relative to: Triton X-100 | hemolysis | ≤ 1%
CC[C@@H]1C[C@]1(NC(=O)[C@@H]1C[C@@]2(CN1C(=O)[C@@H](NC(=O)[C@@H](NC(=O)[C@@H]1CCCCN1C(C)C)C1CCCCC1)C(C)(C)C)C(C)(C)C21CCC1)C(=O)NS(=O)(=O)N1CCCC1 |  | human | oral, dose not given, added: ritonavir | relative to: without ritonavir | reduction in variability of Cmax and AUC | ~25%
CSCc1ccccn1.F[P-](F)(F)(F)(F)F.F[P-](F)(F)(F)(F)F.[Ru+2].c1ccc(-c2ccccn2)nc1.c1ccc(-c2ccnc3c2ccc2c(-c4ccccc4)ccnc23)cc1 |  | wild-type tumour-free zebrafish embryos | intravenous or retro-orbital, 1 nL, followed by light activation |  | maximum tolerated dose | 300 µM
CCN(CC)CCOc1ccc(-c2nnn(Cc3ccc(OC)cc3)c2N)cc1 |  | Sprague-Dawley rat | oral, 4 weeks daily |  | NOAEL | 25 mg/kg
CSCC[C@@H]1NC(=O)[C@@H]2CSSC[C@H](NC(=O)[C@H](CO)NC(=O)[C@H](C)N)C(=O)N[C@@H](CCCNC(=N)N)C(=O)N[C@@H]([C@@H](C)O)C(=O)N3CCC[C@H]3C(=O)N[C@@H](CCCCN)C(=O)N[C@@H](CC(=O)O)C(=O)N[C@H]3CSSC[C@H](NC(=O)[C@H](CCCCN)NC(=O)[C@H](CCCNC(=N)N)NC(=O)[C@H](CC(N)=O)NC1=O)C(=O)N[C@@H](CCCCN)C(=O)N[C@H]1CSSC[C@H](NC(=O)[C@@H]4CCCN4C(=O)[C@H](CC(=O)O)NC(=O)[C@H](C)NC3=O)C(=O)N[C@@H](C)C(=O)N[C@@H](CCCCN)C(=O)N[C@@H](CCC(=O)O)C(=O)N[C@@H]([C@@H](C)O)C(=O)NCC(=O)N[C@@H](CSSC[C@@H](C(N)=O)NC(=O)[C@H](CCCNC(=N)N)NC(=O)[C@H](CC(N)=O)NC1=O)C(=O)N1CCC[C@H]1C(=O)N[C@@H](Cc1ccc(O)cc1)C(=O)NCC(=O)N[C@@H](CCCCN)C(=O)N2 |  | DA rat, pristane-induced arthritis, serum | subcutaneous, 0.1 mg/kg every other day, end of 21-day trial |  | osmolality | 261 mOsm/kg
[11CH3]Oc1ccc(C(=O)Nc2cc(-c3ccc(I)cc3)no2)cc1 |  | mouse, brain | intravenous, 20 min |  | parent compound fraction | 67 ± 6%
[2H]C([2H])([2H])C([2H])([2H])C([2H])([2H])OC(C(=O)OC1CCNCC1)(c1ccccc1)c1ccccc1 |  | male human, plasma | oral, 8 mg, multiple doses |  | Tmax | 3.1 h
CCCC[C@H]1C(=O)N(C)[C@@H](CCCC)C(=O)N[C@@H](CCCNC(=O)CN2CCN(CC(=O)O)CCN(CC(=O)O)CCN(CC(=O)O)CC2)C(=O)N[C@H](C(=O)NCC(N)=O)CSCC(=O)N[C@@H](Cc2ccc(O)cc2)C(=O)N(C)[C@@H](C)C(=O)N[C@@H](CC(N)=O)C(=O)N2CCC[C@H]2C(=O)N[C@@H](Cc2c[nH]cn2)C(=O)N[C@@H](CC(C)C)C(=O)N(C)CC(=O)N[C@@H](Cc2c[nH]c3ccccc23)C(=O)N[C@@H](CO)C(=O)N[C@@H](Cc2c[nH]c3ccccc23)C(=O)N1C [gallium-68 labelled] |  | fetal bovine serum | 2 h, 37 °C |  | radiochemical purity | > 90%
C[C@]12CC[C@H](OCC[18F])C[C@H]1CC[C@@H]1[C@@H]2CC[C@]2(C)[C@@H](c3ccc(=O)oc3)CC[C@]12O | micro-PET | BALB/c nude mice, SMMC-7721 xenograft, liver | intravenous, 7.4 MBq, 5 min |  | peak tissue uptake | 30.1 ± 3.05 %ID/g
C/C(=N\OCCCN1CCCCC1)c1ccc(C(F)(F)F)cc1 | metabolic stability | human, liver microsomes |  |  | half-life | 101 min
CN(C)C(CNC(=O)Nc1cc(C(F)(F)F)ccc1N1CCOCC1)c1ccncc1 (stereo not drawn) |  | mouse, serum | intraperitoneal, 360 mg/kg single dose |  | serum direct bilirubin | 0 mg/dL
Cc1cc(-c2ccc3ccccc3c2)nnc1NCCN1CCN(C)CC1 | metabolic stability | human, liver microsomes |  |  | half-life | > 60 min
CC[C@H](C)[C@H](NC(=O)[C@H](CC(=O)O)NC(=O)[C@H](CO)NC(=O)[C@H](CCC(N)=O)NC(=O)[C@H](C)NC(=O)[C@H](CC(=O)O)NC(=O)[C@H](CCC(=O)O)NC(=O)[C@H](Cc1c[nH]cn1)NC(=O)[C@H](Cc1ccc(O)cc1)NC(=O)[C@H](C)NC(=O)[C@H](CC(=O)O)NC(=O)[C@H](CCC(=O)O)NC(=O)[C@H](Cc1c[nH]cn1)NC(=O)[C@H](Cc1ccc(O)cc1)NC(=O)[C@H](C)NC(=O)[C@H](CC(=O)O)NC(=O)[C@H](CCC(=O)O)NC(=O)[C@H](Cc1c[nH]cn1)NC(=O)[C@H](Cc1ccc(O)cc1)NC(=O)[C@H](C)NC(=O)[C@H](CC(=O)O)NC(=O)[C@H](CCC(=O)O)NC(=O)[C@H](Cc1c[nH]cn1)NC(=O)[C@H](Cc1ccc(O)cc1)NC(=O)[C@H](C)NC(=O)[C@H](CC(=O)O)NC(=O)[C@H](CCC(=O)O)NC(=O)[C@H](Cc1c[nH]cn1)NC(=O)[C@@H](N)Cc1ccc(O)cc1)C(=O)N[C@H](C(=O)N[C@@H](C)C(=O)N[C@@H](Cc1c[nH]cn1)C(=O)N[C@@H](CC(C)C)C(=O)N[C@@H](CC(C)C)C(=O)O)C(C)C |  | mouse SN model, blood | dose not given |  | MO share of white cells | 7.8 ± 0.5%
CC[C@H](C)[C@H](NC(=O)[C@H](CCCCN)NC(=O)[C@H](CCCCN)NC(=O)[C@H](Cc1ccccc1)NC(=O)[C@H](CC(C)C)NC(=O)[C@@H](CCCCN)NC(=O)[C@H](Cc1c[nH]c2ccccc12)NC(=O)[C@H](CCCCN)NC(C)=O)C(=O)NCC(=O)N[C@@H](C)C(=O)N[C@H](C(=O)N[C@@H](CC(C)C)C(=O)N[C@@H](CCCCN)C(=O)N[C@H](CCCCN)C(=O)N[C@@H](CC(C)C)C(N)=O)C(C)C |  | human red blood cells | up to 64 µM, 1 h, 5% red blood cells |  | hemolysis | < 5%
CC[C@H](C)C(=O)N1CCC(NC(=O)Nc2ccc(OC(F)(F)F)c(F)c2)CC1 |  | healthy volunteers | oral, 0.5 mg single dose, 14 (unit not given) |  | subjects with moderate TEAE | 0%
C[S+]1CC[S+]2CC[P+](CO)(CO)[Re-2]12(=[C]=O)(=[C]=O)=[C]=O.[Br-] (stereo not drawn) |  | saturated aqueous human serum albumin | 6 months, 25 °C |  | chemical stability | stable
CCCCCCCCCCCCC(=O)O.O=C1CCCC2C3CCCN4CCCC(CN12)C34 (stereo not drawn) | electrical conductivity | water | 303.15 K |  | standard Gibbs energy of aggregation | -35.5 kJ/mol
C1=CCCC=CCC1.C1=CCCC=CCC1.[Cl][Hg-]([Cl])[Cl].[Cl][Hg-]([Cl])[Cl].[Pt+][c]1ccccc1P(=Nc1ccccc1)(c1ccccc1)c1ccccc1.[Pt+][c]1ccccc1P(=Nc1ccccc1)(c1ccccc1)c1ccccc1 |  | rat, intestine in situ perfusion | 20 µM |  | effective permeability | 4.72e-05 cm/s
Cc1cc(Nc2nc(C[C@@]3(C(=O)O)CCN(Cc4cccc(Cl)c4F)[C@H](C)C3)cc(C)c2F)n[nH]1 |  | beagle dog, plasma | oral, 1 mg/kg, single dose |  | Tmax | 0.417 h
N=C(N)NCc1ccc(C(=O)NCCCC[C@H](NC(=O)CCCCCCC(=O)NCCCC[C@H](NC(=O)N[C@@H](CCC(=O)O)C(=O)O)C(=O)O)C(=O)O)cc1[211At] |  | SCID mouse, PC-3 xenografts, spleen | 1 h |  | tissue uptake | 9.51 ± 2.76 %ID/g
CN[C@](C)(C[18F])C(=O)O |  | mouse, muscle | 15 min, tumour-bearing |  | tracer uptake | 1.5 %ID/g
O=c1oc2cc(O)ccc2c2cc(O)c(O)cc12 | potentiometric titration | water, extrapolated from methanol/water | 25 °C |  | pKa1 | 6.58
Cc1ccc2c(n1)c(-c1cccc(S(C)(=O)=O)c1)c(C)n2C/C(F)=C/CN |  | healthy human volunteers | dose not given, 14 days dosing plus 7 days drug-free |  | tolerability | not toxic
CCNc1cc2[o+]c3cc(NCC)c(C)cc3c(-c3ccccc3C(=O)OCCOCC[18F])c2cc1C |  | rat | 30 min | relative to: heart over lung | tissue uptake ratio | 2.3

Some of these lines once more:
SMILES | assay | system | conditions | scale | endpoint | result
CC[C@H](C)[C@H](NC(=O)[C@H](CCCCN)NC(=O)[C@H](CCCCN)NC(=O)[C@H](Cc1ccccc1)NC(=O)[C@H](CC(C)C)NC(=O)[C@@H](CCCCN)NC(=O)[C@H](Cc1c[nH]c2ccccc12)NC(=O)[C@H](CCCCN)NC(C)=O)C(=O)NCC(=O)N[C@@H](C)C(=O)N[C@H](C(=O)N[C@@H](CC(C)C)C(=O)N[C@@H](CCCCN)C(=O)N[C@H](CCCCN)C(=O)N[C@@H](CC(C)C)C(N)=O)C(C)C |  | human red blood cells | up to 64 µM, 1 h, 5% red blood cells |  | hemolysis | < 5%
O=c1oc2cc(O)ccc2c2cc(O)c(O)cc12 | potentiometric titration | water, extrapolated from methanol/water | 25 °C |  | pKa1 | 6.58
CC[C@H](C)C(=O)N1CCC(NC(=O)Nc2ccc(OC(F)(F)F)c(F)c2)CC1 |  | healthy volunteers | oral, 0.5 mg single dose, 14 (unit not given) |  | subjects with moderate TEAE | 0%
Cc1cc(Nc2nc(C[C@@]3(C(=O)O)CCN(Cc4cccc(Cl)c4F)[C@H](C)C3)cc(C)c2F)n[nH]1 |  | beagle dog, plasma | oral, 1 mg/kg, single dose |  | Tmax | 0.417 h
COC(=O)C[C@](O)(CCCC(C)(C)OC(C)=O)C(=O)O[C@@H]1C(OC)=C[C@]23CCCN2CCc2cc4c(cc2[C@H]13)OCO4 |  | CD1 mouse, stomach | subcutaneous, 1 mg/kg, 8 h |  | tissue concentration | 8.95 ng/mL
